Assay results from different studies.
Protocols differ between the studies behind these lines. Several values in a cell are separate wells, animals, samples, runs or records. ± marks the error that the study gave.
MT-CYB/UQCRFS1: MT-CYB/UQCRFS1 (Homo sapiens, UniProt P00156+P47985)
Chain of UniProt P47985 (whole entry, looked up): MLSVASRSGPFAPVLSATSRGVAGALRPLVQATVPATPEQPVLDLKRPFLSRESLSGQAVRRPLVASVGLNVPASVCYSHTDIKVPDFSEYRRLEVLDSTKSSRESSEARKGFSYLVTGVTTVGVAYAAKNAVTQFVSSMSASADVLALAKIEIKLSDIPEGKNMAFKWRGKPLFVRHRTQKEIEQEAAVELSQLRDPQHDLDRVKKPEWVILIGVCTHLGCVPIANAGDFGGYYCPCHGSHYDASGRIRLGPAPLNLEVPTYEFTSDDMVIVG
Chain of UniProt Q16774 (whole entry, looked up): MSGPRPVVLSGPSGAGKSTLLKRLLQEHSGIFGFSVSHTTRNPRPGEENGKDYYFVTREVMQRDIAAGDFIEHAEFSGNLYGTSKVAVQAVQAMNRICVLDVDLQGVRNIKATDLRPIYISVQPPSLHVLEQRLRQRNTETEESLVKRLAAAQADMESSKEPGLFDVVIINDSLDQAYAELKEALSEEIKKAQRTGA
Chain of UniProt O76090 (whole entry, unmodified, looked up): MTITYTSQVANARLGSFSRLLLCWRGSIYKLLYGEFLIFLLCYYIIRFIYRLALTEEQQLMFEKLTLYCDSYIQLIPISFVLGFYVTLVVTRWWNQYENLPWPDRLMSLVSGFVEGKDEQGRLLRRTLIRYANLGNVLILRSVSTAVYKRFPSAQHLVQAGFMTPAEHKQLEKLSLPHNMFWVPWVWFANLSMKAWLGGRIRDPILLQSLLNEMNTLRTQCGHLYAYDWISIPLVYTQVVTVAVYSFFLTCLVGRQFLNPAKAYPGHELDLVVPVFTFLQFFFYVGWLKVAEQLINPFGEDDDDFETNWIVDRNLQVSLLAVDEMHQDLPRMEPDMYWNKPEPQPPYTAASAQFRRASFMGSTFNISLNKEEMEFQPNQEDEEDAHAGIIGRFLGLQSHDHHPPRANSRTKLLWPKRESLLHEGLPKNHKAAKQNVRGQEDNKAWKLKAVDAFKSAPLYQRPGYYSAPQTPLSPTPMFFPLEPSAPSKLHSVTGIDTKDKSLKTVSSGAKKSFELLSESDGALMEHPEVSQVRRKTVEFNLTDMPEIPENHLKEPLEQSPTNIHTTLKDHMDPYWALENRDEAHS
Chain of UniProt P00156 (whole entry, looked up): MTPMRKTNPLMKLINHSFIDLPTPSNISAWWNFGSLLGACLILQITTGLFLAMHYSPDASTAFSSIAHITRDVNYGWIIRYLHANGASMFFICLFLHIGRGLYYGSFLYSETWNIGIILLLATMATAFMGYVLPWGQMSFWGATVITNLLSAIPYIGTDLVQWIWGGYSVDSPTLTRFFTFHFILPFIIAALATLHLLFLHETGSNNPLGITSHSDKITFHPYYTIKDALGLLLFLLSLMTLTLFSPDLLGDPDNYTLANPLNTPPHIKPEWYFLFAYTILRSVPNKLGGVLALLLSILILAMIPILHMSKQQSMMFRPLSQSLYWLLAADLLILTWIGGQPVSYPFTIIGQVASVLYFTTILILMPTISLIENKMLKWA
Chain of UniProt P04406 (whole entry, looked up): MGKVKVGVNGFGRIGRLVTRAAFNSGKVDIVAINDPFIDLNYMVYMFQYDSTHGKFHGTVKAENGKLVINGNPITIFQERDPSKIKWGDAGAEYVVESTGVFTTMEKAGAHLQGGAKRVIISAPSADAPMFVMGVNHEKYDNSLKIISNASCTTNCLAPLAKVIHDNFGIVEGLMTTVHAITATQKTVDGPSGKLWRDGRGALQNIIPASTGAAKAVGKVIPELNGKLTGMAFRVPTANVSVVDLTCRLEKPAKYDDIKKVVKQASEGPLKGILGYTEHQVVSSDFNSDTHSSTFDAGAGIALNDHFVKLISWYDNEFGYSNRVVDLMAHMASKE
Chain of UniProt P11388 (whole entry, looked up): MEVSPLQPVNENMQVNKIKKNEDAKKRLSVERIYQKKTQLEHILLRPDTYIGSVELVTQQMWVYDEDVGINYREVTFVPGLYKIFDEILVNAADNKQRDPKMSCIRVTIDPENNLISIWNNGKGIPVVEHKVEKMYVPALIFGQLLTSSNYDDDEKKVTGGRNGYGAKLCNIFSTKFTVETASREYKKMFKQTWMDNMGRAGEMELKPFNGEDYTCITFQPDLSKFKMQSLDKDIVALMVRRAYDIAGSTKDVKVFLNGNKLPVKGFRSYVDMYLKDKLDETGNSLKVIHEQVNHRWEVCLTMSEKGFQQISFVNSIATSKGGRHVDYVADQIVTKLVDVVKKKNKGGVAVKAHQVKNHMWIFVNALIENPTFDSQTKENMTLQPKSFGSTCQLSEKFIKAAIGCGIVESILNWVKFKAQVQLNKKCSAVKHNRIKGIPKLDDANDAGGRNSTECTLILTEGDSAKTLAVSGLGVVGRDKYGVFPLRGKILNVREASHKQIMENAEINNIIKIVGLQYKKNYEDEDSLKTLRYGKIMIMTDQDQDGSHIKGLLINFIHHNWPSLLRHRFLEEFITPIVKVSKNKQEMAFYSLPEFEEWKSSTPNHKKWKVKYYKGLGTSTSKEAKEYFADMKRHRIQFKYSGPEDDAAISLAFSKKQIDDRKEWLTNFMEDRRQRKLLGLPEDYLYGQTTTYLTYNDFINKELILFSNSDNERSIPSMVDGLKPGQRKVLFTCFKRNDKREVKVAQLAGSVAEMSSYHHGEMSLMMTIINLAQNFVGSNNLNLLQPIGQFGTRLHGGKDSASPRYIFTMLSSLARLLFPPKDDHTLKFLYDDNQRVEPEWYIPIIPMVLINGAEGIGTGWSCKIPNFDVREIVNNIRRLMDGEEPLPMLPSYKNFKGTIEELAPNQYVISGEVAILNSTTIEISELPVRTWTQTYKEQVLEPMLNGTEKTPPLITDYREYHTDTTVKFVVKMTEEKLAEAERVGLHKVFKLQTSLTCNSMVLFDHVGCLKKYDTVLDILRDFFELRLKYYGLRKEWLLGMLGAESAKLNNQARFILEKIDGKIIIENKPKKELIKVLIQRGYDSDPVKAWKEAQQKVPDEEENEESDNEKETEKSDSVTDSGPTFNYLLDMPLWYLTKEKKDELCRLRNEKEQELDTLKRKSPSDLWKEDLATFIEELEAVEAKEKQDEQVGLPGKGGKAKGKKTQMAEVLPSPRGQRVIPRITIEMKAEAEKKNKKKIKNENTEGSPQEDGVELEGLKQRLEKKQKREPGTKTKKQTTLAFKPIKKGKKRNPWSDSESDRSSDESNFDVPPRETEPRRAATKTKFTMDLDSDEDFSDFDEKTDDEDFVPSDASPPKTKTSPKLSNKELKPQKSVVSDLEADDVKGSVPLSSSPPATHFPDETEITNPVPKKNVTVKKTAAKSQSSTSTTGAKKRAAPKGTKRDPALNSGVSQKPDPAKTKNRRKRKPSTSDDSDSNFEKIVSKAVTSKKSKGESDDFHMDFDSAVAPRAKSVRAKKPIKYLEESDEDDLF
Chain of UniProt P05164 (whole entry, looked up): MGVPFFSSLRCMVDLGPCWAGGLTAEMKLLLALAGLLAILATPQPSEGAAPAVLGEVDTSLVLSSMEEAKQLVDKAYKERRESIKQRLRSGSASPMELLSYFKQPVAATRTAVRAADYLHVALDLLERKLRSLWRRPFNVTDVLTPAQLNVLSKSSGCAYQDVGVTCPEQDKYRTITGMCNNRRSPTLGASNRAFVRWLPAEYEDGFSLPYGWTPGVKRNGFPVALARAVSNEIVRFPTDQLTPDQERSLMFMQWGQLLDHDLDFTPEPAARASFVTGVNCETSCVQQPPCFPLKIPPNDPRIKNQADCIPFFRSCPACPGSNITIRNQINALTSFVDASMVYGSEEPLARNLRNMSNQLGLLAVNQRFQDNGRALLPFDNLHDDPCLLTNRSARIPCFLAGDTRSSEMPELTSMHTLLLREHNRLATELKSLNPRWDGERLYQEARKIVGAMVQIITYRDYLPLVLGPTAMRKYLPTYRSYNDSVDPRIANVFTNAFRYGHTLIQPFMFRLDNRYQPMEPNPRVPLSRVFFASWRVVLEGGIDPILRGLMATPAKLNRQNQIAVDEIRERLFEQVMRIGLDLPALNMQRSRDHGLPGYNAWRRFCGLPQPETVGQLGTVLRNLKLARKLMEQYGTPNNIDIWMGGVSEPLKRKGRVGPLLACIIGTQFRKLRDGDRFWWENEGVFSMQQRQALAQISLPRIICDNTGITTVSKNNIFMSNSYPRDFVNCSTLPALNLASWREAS
Chain of UniProt Q4FL33 (whole entry, looked up): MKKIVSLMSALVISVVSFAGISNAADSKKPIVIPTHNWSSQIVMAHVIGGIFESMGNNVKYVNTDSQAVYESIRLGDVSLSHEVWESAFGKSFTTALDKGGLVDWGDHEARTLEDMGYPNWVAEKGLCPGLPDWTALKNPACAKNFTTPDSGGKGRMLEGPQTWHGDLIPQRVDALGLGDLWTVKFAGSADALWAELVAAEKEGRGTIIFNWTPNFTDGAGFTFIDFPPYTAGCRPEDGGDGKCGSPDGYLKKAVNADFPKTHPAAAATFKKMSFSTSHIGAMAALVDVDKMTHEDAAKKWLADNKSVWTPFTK
Chain of UniProt Q9Y5A9 (whole entry, looked up): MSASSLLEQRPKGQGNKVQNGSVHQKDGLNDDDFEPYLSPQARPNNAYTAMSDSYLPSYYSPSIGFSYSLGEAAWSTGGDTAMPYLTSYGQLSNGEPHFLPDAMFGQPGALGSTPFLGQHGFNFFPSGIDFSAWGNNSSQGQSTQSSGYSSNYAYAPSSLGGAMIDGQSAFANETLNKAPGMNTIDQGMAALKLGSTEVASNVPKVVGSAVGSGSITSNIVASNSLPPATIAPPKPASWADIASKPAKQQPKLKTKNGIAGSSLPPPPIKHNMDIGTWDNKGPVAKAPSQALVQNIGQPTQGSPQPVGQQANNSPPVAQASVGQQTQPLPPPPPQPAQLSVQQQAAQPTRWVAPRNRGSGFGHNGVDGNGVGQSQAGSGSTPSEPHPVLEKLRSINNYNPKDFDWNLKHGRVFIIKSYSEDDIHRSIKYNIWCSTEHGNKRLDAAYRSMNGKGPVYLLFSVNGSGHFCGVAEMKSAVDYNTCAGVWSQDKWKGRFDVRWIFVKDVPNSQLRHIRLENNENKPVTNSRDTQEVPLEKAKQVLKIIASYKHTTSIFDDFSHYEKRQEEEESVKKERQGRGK

| SMILES | target | assay | system | conditions | scale | quantity | value |
| --- | --- | --- | --- | --- | --- | --- | --- |
| Nc1ncnc2c1ncn2[C@@H]1O[C@H](COP(=O)(O)OP(=O)(O)NP(=O)(O)O)[C@@H](O)[C@H]1O | Cell cycle histidine kinase CckA, CA domain (Caulobacter vibrioides, UniProt Q9X688) | isothermal titration calorimetry | Caulobacter crescentus | concentration not given, 12 °C, added: c-di-GMP 100 µM | – | binding enthalpy (ΔH) | -2.4 kcal/mol |
| C[N+](C)(C)[O-] | Trimethylamine N-oxide-binding protein (tmoX, Pelagibacter ubique, UniProt Q4FL33) | binding, DSF | – | single replicate screen | – | thermal shift | 18.6 °C |
| NCCS(=O)(=O)O | SLC6A6 (Homo sapiens, UniProt P31641, S402A) | binding, microscale thermophoresis | – | 1 mM, room temperature, added: 50 nM labelled protein | higher = more binding | normalised MST signal | -0.0237 |
| CSc1ccc(C(=O)/C=C/c2cc(C)c(OC(C)(C)C(=O)O)c(C)c2)cc1 | Peroxisome proliferator-activated receptor alpha (Rattus norvegicus, UniProt P37230) | receptor activation, agonist | – | species rat | reference: internal control agonist | Emax | 87% |
| O=C(COP(=O)(O)O)[C@@H](O)[C@H](O)[C@H](O)COP(=O)(O)O | Gem-associated protein 5 (Homo sapiens, UniProt Q8TEQ6) | thermal proteome profiling, measured: GEMIN5 | HepG2 cell lysate | concentration not given, 57 over 37 °C, mean | reference: compound over control | thermal stability ratio | 0.508 |
| CC(NC(=O)CCCc1ccc2ccc3cccc4ccc1c2c34)C(=O)NO (stereo not drawn) | HDAC8 (Homo sapiens, UniProt Q9BY41) | ITC | Hepes buffer | pH 7.5 | – | TΔS | 6.1 kcal/mol |
| CC[C@@H]1[C@H](F)C(=O)N[C@@H]1COc1nccc2cc(C(N)=O)c(OC)cc12 | MAP3K2 (Homo sapiens, UniProt Q9Y2U5) | ATP-site probe binding, ActivX profiling | THP-1 cell lysate | 0.2 mM, Lys1 site | – | inhibition | -5.2% |
| Nc1ccc(C(=O)O)cc1 | BEST1, with wild-type BEST1 (Homo sapiens, UniProt O76090, L234P) | ion current, whole-cell patch clamp | HEK293 co-expressing mutant and wild-type | concentration not given, voltage 80 mV | – | current density | 8.09 pA/pF and 43.9 pA/pF and 17.9 pA/pF and 24.4 pA/pF and 12.5 pA/pF and 15.4 pA/pF |
| C[C@@H](O)[C@H](NC(=O)[C@H](CS)NC(=O)[C@@H](N)CO)C(=O)O | GAPDH (Homo sapiens, UniProt P04406) | spectrophotometric Vmax | – | 10 µM, added: enzyme 10 nM | reference: vehicle | enzyme activity | 102% and 100% and 98.6% |
| O=CNc1ccc(Br)cc1C=O | Dehaloperoxidase B, ferric (Amphitrite ornata, UniProt Q9NAV7) | product, HPLC | – | added: 5-bromoindole 500 µM, H2O2 500 µM | – | share of total products | 0.5% |
| C[C@H](CCC(C)(C)O)[C@H]1CC[C@H]2[C@@H]3CC=C4C[C@@](C)(O)CC[C@]4(C)[C@H]3CC[C@]12C | Glutamate NMDA receptor; GRIN1/GRIN2B (GRIN1/GRIN2B, Homo sapiens, UniProt Q05586+Q13224, F550A) | positive allosteric modulator, two-electrode voltage clamp | Xenopus oocytes expressing GluN2B-F550A | 10 µM, 0.02% cremophor, added: 100 µM glutamate and glycine | reference: without compound | current response | 427 ± 35% |
| N[C@H](COP(=O)(O)O)Cc1c[nH]cn1 | Beta1 | substrate, coupled phosphate release | – | – | – | Km | 21 ± 5 µM |
| CC(=O)N[C@@H](CO)C(=O)N[C@@H](CC(C)C)C(=O)N[C@@H](CCC(=O)O)C(=O)N[C@@H](CCC(=O)O)C(=O)N1CCC[C@H]1C(=O)N[C@@H](Cc1c[nH]cn1)C(=O)N[C@@H](CO)C(=O)N1CCC[C@H]1C(=O)N[C@@H](CCC(=O)O)C(=O)N[C@H](C(=O)NCC(=O)N[C@@H](CCC(=O)O)C(=O)N[C@@H](CCCCN)C(=O)N[C@H](C(=O)N[C@H](C(=O)N[C@@H](C)C(=O)NCC(=O)N[C@@H](CCC(=O)O)C(=O)N[C@H](C(=O)N[C@@H](CC(N)=O)C(N)=O)C(C)C)C(C)C)C(C)C)[C@@H](C)O | Kelch-like ECH-associated protein 1, Kelch domain (KEAP1, Homo sapiens, UniProt Q14145) | binding, ITC | – | pH 7, 298.15 K | – | TΔS | -9.18 kcal/mol |
| CCCC(CCC)c1nc2c(Nc3ccc(C#CCCCCCCCCN)cc3)nc3ccccc3c2[nH]1 | DRD1 (Homo sapiens, UniProt P21728) | PDSP screening | – | – | – | off-target affinity | inactive |
| Cc1nc2ccc(CN(C)c3ccc(C(=O)N[C@@H](CCC(=O)O)C(=O)O)s3)cc2c(=O)[nH]1 | TYMS (Homo sapiens, UniProt P04818) | from literature Kd | – | – | – | binding efficiency index | 16 |
| O=c1nc(SCc2cc(F)cc(C(F)(F)F)c2)nc(SCc2ccc3nc(Cl)ccc3c2)[nH]1 | TOP2A (Homo sapiens, UniProt P11388) | ATPase activity | – | 125 µM, added: ATP 0.75 mM | – | ATP hydrolysis rate | 2.55 µM/min and 0.322 µM/min |
| Cn1cnc([N+](=O)[O-])c1SCc1csc2ccccc12 | Protein lin-28 homolog A (Mus musculus, UniProt Q8K3Y3) | – | – | – | – | Hill slope | -1.1 |
| NC(=O)NOCCCCCCCCCCCCCC[P+](c1ccccc1)(c1ccccc1)c1ccccc1.O=C([O-])C(F)(F)F | MT-CYB/UQCRFS1 | complex III-dependent respiration, Seahorse XF96 | HCT-116 | 1 µM, 24 h | reference: control | oxygen consumption rate | 67.5 ± 5.85% |
| OC[C@H]1OC(O)[C@H](O)[C@@H](O)[C@@H]1O (stereo partly drawn) | Hexokinase-3 (HK3, Homo sapiens, UniProt P52790, A499V) | substrate inhibition | – | mutant A499V, partial substrate inhibition model, added: ATP 20 mM | – | kcat | 72 ± 4 s⁻¹ |
| CC(C)CC(=O)N[C@H](C(=O)N[C@H](C(=O)N[C@@H](CC(C)C)[C@@H](O)CC(=O)N[C@@H](C)C(=O)N[C@@H](CC(C)C)[C@@H](O)CC(=O)NCCOCCC(=O)NCCCC[C@H](NC(=O)CN1CCN(CC(=O)O)CCN(CC(=O)O)CC1)C(=O)O)C(C)C)C(C)C | Cathepsin D (CTSD, Homo sapiens, UniProt P07339) | surface plasmon resonance | – | – | – | association rate constant | 232 M⁻¹ s⁻¹ |
| CC(C)OCCn1c(=S)[nH]c(=O)c2[nH]ccc21 | Myeloperoxidase (MPO, Homo sapiens, UniProt P05164) | H2O2 consumption, inhibitor, H2O2 electrode | – | 0.68 µM, 0 s | – | H2O2 concentration | -35.7 µM |
| CCN(O)N=Nc1ccc(S(=O)(=O)Nc2onc(C)c2C)cc1 | α-glucosidase, rat intestine | enzyme activity | – | 240 µg/mL, added: 4-nitrophenyl α-D-glucopyranoside | – | inhibition | 47.5 ± 0.04% |
| COc1cc(NC(=O)c2cscn2)ccc1/N=N/c1ccccc1Cl | GRM8 (Homo sapiens, UniProt O00222) | positive allosteric modulator, IP accumulation | HEK293 | 30 µM, in the dark, added: low-dose orthosteric agonist | – | activation | 37.5% |
| NC(=O)NOCCCCCCCCCCCCCCCC[P+](c1ccccc1)(c1ccccc1)c1ccccc1.O=C([O-])C(F)(F)F | MT-CYB/UQCRFS1 | complex III-dependent respiration, Seahorse XF96 | HCT-116 | 5 µM, 24 h | reference: control | oxygen consumption rate | 36.4% |
| CN1CCN(c2cc(-c3ccncc3)c(-c3ccc4ccccc4c3)nn2)CC1 | BRS3 (Homo sapiens, UniProt P32247) | agonist, FLIPR | – | 12.5 µM | – | activation | -2.5% |
| Nc1nc2c(ncn2[C@@H]2O[C@H](COP(=O)(O)O)[C@@H](O)[C@H]2O)c(=O)[nH]1 | GUK1 (Homo sapiens, UniProt Q16774) | enzyme activity, NADH-coupled | – | 62.5 µM | – | reaction rate | 39 s⁻¹ and 36 s⁻¹ and 41.9 s⁻¹ |
| NC(=O)NO | MT-CYB/UQCRFS1 | complex III-dependent respiration, Seahorse XF96 | HCT-116 | 100 µM, 24 h | reference: control | oxygen consumption rate | 94.6 ± 7.97% |
| CC1CCCN(C(=O)c2cc3ncccn3n2)C1 (stereo not drawn) | YTHDF2 (Homo sapiens, UniProt Q9Y5A9) | binding, affinity selection mass spectrometry | – | – | reference: other proteins in batch | fold enrichment | 0.785 |
| O=S(=O)(Nc1nccs1)c1ccc(N=NN(O)c2ccccc2)cc1 | α-glucosidase, rat intestine | enzyme activity | – | 300 µg/mL, added: 4-nitrophenyl α-D-glucopyranoside | – | inhibition | 52.5% |
| NC(=O)NOCCCCCCCCCCCCCCCCCCCC[P+](c1ccccc1)(c1ccccc1)c1ccccc1.O=C([O-])C(F)(F)F | MT-CYB/UQCRFS1 | complex III-dependent respiration, Seahorse XF96 | HCT-116 | 0.03 µM, 24 h | reference: control | oxygen consumption rate | 98.8% |
